Published values pooled from the literature.
Compare with care: the assays were run in different laboratories. “And” joins repeats or separate records; there may be more than shown. ± marks the error that the study gave.
Complement C3: Complement C3 (Homo sapiens, UniProt P01024)
UniProt P01024, sequence (whole entry, looked up): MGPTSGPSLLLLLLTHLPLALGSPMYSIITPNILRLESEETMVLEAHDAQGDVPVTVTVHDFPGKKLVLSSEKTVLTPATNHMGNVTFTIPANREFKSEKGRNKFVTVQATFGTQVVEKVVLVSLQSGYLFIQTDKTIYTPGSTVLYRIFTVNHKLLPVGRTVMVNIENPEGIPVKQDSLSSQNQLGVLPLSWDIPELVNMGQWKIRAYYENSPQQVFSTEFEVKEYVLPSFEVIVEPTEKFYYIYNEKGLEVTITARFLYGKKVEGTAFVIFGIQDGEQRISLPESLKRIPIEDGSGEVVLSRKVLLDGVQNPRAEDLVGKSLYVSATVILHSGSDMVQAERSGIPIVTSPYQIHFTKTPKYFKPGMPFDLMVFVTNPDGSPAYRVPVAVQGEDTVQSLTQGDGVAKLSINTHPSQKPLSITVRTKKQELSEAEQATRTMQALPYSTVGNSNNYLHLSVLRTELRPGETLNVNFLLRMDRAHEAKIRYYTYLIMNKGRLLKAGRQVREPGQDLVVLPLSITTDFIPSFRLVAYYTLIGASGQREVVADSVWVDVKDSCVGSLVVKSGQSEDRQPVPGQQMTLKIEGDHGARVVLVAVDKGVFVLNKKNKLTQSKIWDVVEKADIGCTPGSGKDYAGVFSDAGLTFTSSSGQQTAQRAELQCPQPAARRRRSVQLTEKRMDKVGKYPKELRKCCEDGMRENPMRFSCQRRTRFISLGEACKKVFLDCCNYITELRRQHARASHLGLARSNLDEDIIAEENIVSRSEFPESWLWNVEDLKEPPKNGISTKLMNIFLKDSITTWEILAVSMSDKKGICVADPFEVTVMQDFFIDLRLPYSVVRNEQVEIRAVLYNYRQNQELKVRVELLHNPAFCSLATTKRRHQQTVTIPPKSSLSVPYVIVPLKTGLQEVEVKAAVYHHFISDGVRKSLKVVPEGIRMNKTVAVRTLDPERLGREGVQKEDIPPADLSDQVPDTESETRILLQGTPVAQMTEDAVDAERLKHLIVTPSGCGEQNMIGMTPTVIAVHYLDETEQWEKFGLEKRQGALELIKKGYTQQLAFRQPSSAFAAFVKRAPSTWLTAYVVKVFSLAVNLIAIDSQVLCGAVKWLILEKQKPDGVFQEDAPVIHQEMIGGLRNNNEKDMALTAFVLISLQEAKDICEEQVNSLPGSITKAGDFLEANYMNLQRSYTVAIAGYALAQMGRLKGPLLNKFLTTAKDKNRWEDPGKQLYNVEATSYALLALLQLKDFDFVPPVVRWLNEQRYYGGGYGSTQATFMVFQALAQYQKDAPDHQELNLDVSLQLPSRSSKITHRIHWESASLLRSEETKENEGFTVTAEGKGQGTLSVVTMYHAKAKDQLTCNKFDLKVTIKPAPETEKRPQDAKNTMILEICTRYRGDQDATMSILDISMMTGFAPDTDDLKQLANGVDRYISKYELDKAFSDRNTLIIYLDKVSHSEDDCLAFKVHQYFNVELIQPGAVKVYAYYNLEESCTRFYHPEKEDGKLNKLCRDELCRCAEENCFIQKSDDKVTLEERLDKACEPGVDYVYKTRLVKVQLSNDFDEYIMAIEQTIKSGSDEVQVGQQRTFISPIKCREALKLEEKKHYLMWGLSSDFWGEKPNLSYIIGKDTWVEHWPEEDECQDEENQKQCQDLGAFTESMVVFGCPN
lecA: PA-I galactophilic lectin (lecA, Pseudomonas aeruginosa, UniProt Q05097)
UniProt Q05097, sequence (whole entry, looked up): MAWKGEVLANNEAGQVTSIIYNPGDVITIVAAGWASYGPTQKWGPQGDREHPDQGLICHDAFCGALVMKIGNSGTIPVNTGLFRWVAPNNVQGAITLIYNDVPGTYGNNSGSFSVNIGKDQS
GRB2 N-terminal SH3 domain: Growth factor receptor-bound protein 2, N-terminal SH3 domain (GRB2, Homo sapiens, UniProt P62993)
UniProt P62993, sequence (whole entry, looked up): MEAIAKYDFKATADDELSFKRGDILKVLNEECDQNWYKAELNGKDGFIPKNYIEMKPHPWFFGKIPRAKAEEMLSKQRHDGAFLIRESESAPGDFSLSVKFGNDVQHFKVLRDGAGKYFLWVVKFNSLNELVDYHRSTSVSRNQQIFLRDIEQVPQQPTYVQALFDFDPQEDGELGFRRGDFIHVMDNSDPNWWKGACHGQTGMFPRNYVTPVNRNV
UniProt P50637, sequence (whole entry, looked up): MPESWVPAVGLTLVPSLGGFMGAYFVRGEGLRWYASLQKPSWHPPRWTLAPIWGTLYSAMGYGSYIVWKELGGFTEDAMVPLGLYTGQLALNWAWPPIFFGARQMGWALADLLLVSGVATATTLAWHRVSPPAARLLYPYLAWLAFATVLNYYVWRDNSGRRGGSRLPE
UniProt Q9Y294, sequence (whole entry, looked up): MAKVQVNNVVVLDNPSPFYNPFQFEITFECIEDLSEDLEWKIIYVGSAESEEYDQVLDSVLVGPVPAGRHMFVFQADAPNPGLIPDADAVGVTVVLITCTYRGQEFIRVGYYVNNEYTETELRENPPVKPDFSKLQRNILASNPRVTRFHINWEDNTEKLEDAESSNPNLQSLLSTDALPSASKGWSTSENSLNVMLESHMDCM
UniProt Q08460, sequence (whole entry, looked up): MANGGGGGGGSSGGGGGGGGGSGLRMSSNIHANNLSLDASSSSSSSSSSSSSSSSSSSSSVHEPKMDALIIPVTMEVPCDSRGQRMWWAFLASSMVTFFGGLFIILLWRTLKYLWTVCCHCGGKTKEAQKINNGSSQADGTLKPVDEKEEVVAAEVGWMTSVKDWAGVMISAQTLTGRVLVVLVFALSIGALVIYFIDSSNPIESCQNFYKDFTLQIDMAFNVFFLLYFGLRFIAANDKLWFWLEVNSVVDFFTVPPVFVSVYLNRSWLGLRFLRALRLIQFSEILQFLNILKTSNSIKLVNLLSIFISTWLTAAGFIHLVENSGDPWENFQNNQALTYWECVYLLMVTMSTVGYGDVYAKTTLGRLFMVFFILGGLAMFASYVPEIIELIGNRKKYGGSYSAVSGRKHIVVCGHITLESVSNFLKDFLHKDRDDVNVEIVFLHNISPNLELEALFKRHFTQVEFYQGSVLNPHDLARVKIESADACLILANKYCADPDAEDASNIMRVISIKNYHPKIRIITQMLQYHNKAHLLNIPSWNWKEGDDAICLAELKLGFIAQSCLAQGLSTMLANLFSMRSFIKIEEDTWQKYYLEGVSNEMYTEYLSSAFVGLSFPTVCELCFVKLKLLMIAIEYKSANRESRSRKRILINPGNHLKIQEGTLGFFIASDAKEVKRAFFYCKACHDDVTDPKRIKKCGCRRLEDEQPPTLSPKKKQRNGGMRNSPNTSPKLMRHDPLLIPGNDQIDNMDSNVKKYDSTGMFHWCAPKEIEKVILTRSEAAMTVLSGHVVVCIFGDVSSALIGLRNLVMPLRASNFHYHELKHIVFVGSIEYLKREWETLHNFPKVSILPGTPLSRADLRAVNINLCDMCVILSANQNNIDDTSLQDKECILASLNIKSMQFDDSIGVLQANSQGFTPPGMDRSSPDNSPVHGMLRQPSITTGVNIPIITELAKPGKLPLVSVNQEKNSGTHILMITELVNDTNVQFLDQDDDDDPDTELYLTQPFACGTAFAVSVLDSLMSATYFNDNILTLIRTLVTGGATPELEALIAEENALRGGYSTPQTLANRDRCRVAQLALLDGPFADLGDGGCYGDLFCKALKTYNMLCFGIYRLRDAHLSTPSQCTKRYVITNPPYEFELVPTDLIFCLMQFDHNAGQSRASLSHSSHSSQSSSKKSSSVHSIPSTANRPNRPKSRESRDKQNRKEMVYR
UniProt Q9NXA8, sequence (whole entry, looked up): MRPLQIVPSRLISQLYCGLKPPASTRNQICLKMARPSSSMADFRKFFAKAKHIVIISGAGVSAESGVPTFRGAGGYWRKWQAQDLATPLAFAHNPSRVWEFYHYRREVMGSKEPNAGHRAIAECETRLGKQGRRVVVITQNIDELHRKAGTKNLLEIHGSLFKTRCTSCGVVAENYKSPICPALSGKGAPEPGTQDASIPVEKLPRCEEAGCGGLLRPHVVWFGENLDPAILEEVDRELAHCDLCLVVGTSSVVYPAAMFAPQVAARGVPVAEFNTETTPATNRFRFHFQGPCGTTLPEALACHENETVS
UniProt Q9HAT8, sequence (whole entry, looked up): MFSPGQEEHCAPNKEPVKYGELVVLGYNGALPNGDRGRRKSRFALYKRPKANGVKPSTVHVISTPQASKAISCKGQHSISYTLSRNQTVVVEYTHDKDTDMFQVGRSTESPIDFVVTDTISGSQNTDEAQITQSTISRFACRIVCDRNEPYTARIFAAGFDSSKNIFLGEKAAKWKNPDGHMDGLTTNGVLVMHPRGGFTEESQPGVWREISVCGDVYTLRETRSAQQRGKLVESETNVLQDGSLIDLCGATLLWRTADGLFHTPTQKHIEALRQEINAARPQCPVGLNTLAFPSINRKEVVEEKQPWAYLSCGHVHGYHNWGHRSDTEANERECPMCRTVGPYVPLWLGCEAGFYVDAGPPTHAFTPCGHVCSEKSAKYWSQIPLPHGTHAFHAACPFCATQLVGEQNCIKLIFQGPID
UniProt Q13148, sequence (whole entry, looked up): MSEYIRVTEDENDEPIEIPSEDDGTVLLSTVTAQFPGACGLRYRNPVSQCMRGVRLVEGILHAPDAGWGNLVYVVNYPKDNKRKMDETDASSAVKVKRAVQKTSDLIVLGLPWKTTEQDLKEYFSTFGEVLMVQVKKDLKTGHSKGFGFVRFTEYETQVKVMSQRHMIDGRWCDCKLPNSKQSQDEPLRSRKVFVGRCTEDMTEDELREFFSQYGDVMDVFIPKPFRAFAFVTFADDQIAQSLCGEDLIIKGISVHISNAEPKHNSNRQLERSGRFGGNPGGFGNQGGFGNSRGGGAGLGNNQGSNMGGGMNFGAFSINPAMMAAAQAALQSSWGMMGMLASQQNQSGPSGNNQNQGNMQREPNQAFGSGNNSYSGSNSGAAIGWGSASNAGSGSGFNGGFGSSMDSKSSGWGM

SMILES | target | test | test system | conditions | Kd
CC(=O)N[C@@H](Cc1c[nH]c2ccccc12)C(=O)N[C@H]1CSSC[C@@H](C(=O)N[C@@H](Cc2c[nH]c3ccccc23)C(N)=O)NC(=O)[C@H](CCCNC(=N)N)NC(=O)[C@H](Cc2c[nH]cn2)NC(=O)[C@H](C)NC(=O)CNC(=O)[C@H](Cc2c[nH]c3ccccc23)NC(=O)[C@H](CC(=O)O)NC(=O)[C@H](CCC(N)=O)NC(=O)[C@H](Cc2c[nH]c3ccccc23)NC(=O)[C@H](C(C)C)NC1=O | Complement C3 | surface plasmon resonance | – | 25 °C, 1:1 binding model | 0.38 µM
CCC(C)N(C)C(=O)c1nc(-c2cccc(C(F)(F)[18F])c2)c2ccccc2n1 (stereo not drawn) | Translocator protein (Tspo, Mus musculus, UniProt P50637) | binding | RAW264.7 | 2 h, 37 °C | ~0.0133 µM
OC[C@H]1O[C@@H](Oc2ccc(OCc3cn([C@H]4[C@H](O)[C@@H](O)[C@H](c5cn([C@H]6[C@H](O)[C@@H](O)[C@H](n7cc(COc8ccc(O[C@@H]9O[C@H](CO)[C@H](O)[C@H](O)[C@H]9O)cc8)nn7)O[C@@H]6CO)nn5)O[C@@H]4CO)nn3)cc2)[C@H](O)[C@@H](O)[C@H]1O | lecA | binding, ITC | – | pH 7.5 | 0.094 µM
Nc1nc2c(ncn2[C@@H]2O[C@@H]3COP(=O)(O)O[C@H]4[C@@H](O)[C@H](n5cnc6c(N)ncnc65)O[C@@H]4COP(=O)(O)O[C@H]3[C@H]2O)c(=O)[nH]1 | darB (Bacillus subtilis, UniProt O31698) | binding, ITC | – | – | 1.17 µM
COc1cc(C(=O)O)c2c(c1)C(C)=CC(C)(C)N2 | E3 ubiquitin-protein ligase CBL-C (Homo sapiens, UniProt Q9ULV8) | binding, NMR | – | – | 720 µM
NC(=O)CN1C(=O)C(O)(CC(=O)c2cccc(N)c2)c2ccccc21 (stereo not drawn) | uncharacterized protein (Leishmania donovani, UniProt A0A3Q8IA09) | competitive ITC | – | added: glutamate 60 µM | 2 µM
CC(=O)N[C@H](C(=O)N[C@H](C(=O)N[C@@H](CCCNC(=N)N)C(=O)N[C@@H](CC(N)=O)C(=O)N[C@@H](CC(=O)O)C(=O)N[C@H](C(=O)N1CCC[C@@H]1C(=O)N1CCC[C@H]1C(=O)N[C@@H](CC(=O)O)C(=O)N[C@@H](CO)C(=O)N[C@@H](CC(C)C)C(=O)N[C@@H](CC(C)C)C(=O)N[C@H](C(=O)N[C@@H](Cc1ccccc1)C(N)=O)C(C)C)C(C)C)[C@@H](C)O)C(C)C | Catenin beta-1 (CTNNB1, Homo sapiens, UniProt P35222) | binding | – | – | ~2 µM
CC[C@H](C)[C@H](NC(=O)[C@H](CCCNC(=N)N)NC(=O)NC[C@H](CCC(N)=O)NC(=O)NC[C@H](CC(C)C)NC(=O)NC[C@H](CCCNC(=N)N)NC(=O)NC[C@H](C)NC(=O)[C@H](CCCCN)NC(=O)[C@H](CCC(=O)O)NC(C)=O)C(=O)N[C@@H](C)C(N)=O | Histone chaperone ASF1A (Homo sapiens, UniProt Q9Y294) | binding, ITC | – | pH 7.5 | 13.3 µM
CC(=O)[C@@]1(O)CC[C@H]2[C@@H]3CCC4=CC(=O)CC[C@]4(C)[C@H]3CC[C@@]21C | anti-cortisol Fab fragment 17 (mouse) | binding, surface plasmon resonance | – | – | 0.08 µM
O=C1c2sc(-c3ccc(N4CCC(CO)CC4)nc3F)nc2CCN1c1cccnc1 | TAR DNA-binding protein 43, aggregated (TARDBP, Homo sapiens, UniProt Q13148) | surface plasmon resonance | brain-derived aggregates | – | 0.08 ± 0.026 µM
CC(C)[C@H](NC(=O)[C@H](CCC(=O)O)NC(=O)[C@H](Cc1ccc(O)cc1)NC(=O)CNC(=O)[C@H](CO)NC(=O)[C@H](CC(=O)O)NC(=O)[C@H](Cc1c[nH]cn1)NC(=O)[C@H](CCCNC(=N)N)NC(=O)[C@H](Cc1ccccc1)NC(=O)[C@H](CCC(=O)O)NC(=O)[C@H](C)NC(=O)[C@@H](N)CC(=O)O)C(=O)N[C@@H](Cc1c[nH]cn1)C(=O)N[C@@H](Cc1c[nH]cn1)C(=O)N[C@@H](CCC(N)=O)C(=O)N[C@@H](CCCCN)C(=O)O | Polyubiquitin-B (UBB, Homo sapiens, UniProt P0CG47) | ubiquitin binding, microscale thermophoresis | – | 25 °C | 340 µM
CC(C)C[C@H](NC(=O)[C@H](CO)NC(=O)[C@@H](N)Cc1c[nH]c2ccccc12)C(=O)N[C@@H](CCC(=O)O)C(=O)N[C@H](C(=O)N[C@H](C(=O)N[C@@H](CCC(=O)O)C(=O)N[C@@H](C)C(=O)N[C@@H](CC(=O)O)C(=O)N[C@H](C(=O)O)[C@@H](C)O)[C@@H](C)OP(=O)(O)O)C(C)C | E3 ubiquitin-protein ligase pellino homolog 2 (PELI2, Homo sapiens, UniProt Q9HAT8) | – | – | – | > 100 µM
O=C(CCc1ccc2n1[B-](F)(F)[N+]1=C(c3ccc[nH]3)C=CC1=C2)NCCCn1cc([C@H]2CN(Cc3ccccn3)C(=O)[C@@H]3CCC[C@H]2N3S(=O)(=O)c2cc(Cl)cc(Cl)c2)nn1 | Peptidyl-prolyl cis-trans isomerase FKBP5 (FKBP5, Homo sapiens, UniProt Q13451) | binding, FP | – | – | 0.228 µM
O=C(COc1ccccc1)N[C@@H](Cc1cn(CCNC(=O)c2ccc(S[C@@H]3O[C@H](CO)[C@H](O)[C@H](O)[C@H]3O)cc2)nn1)C(=O)NCCO | lecA | binding, ITC | – | – | 9.4 µM
CCOC(=O)C1=CN([C@@H]2O[C@H](CO)[C@@H](O)[C@H]2O)C=CC1 | NAD-dependent protein deacylase sirtuin-5, mitochondrial (SIRT5, Homo sapiens, UniProt Q9NXA8) | binding, ITC | – | – | 8.3 µM
CC(=O)N[C@H](C(=O)N1CCC[C@H]1C(=O)N1CCC[C@H]1C(=O)N1C[C@@H]2C[C@H]1C(=O)N[C@@H](C(C)C)C(=O)N1CCC[C@H]1C(=O)N1C[C@@H](C[C@H]1C(=O)N[C@@H](CCCNC(=N)N)C(=O)N[C@@H](CCCNC(=N)N)C(=O)N[C@@H](CCCNC(=N)N)C(N)=O)OCCCC=CCO2)C(C)C | GRB2 N-terminal SH3 domain | binding, tryptophan fluorescence | PBS | 21 °C | 18.6 µM and ~18 µM
CC(C)=CCC[C@](C)(O)[C@H]1CC[C@]2(C)[C@@H]1[C@H](O)C[C@@H]1[C@@]3(C)CC[C@H](O)C(C)(C)[C@@H]3CC[C@]12C | 14-3-3 protein zeta/delta (YWHAZ, Homo sapiens, UniProt P63104) | binding, BLI | – | – | 45.2 µM
O=C(COc1ccc(F)cc1)N[C@@H](Cc1cn(CCNC(=O)c2ccc(S[C@@H]3O[C@H](CO)[C@H](O)[C@H](O)[C@H]3O)cc2)nn1)C(=O)NCCO | lecA | binding, SPR | – | – | 7.8 µM
CC(=O)N[C@H](C(=O)N1CCC[C@H]1C(=O)N1CCC[C@H]1C(=O)N1C[C@@H]2C[C@H]1C(=O)N[C@@H](C(C)C)C(=O)N1CCC[C@H]1C(=O)N1C[C@@H](C[C@H]1C(=O)N[C@@H](CCCNC(=N)N)C(=O)N[C@@H](CCCNC(=N)N)C(=O)N[C@@H](CCCNC(=N)N)C(N)=O)OCCC=CCO2)C(C)C | GRB2 N-terminal SH3 domain | binding, tryptophan fluorescence | PBS | 21 °C | ~24 µM and 24.2 µM
CC(C)C[C@@H](N)C(=O)N[C@H](CC(=O)O)C(=O)N[C@@H](C(=O)N[C@H](Cc1ccccc1)C(=O)N[C@H](CC(C)C)C(=O)N[C@H](Cc1ccc(O)cc1)C(=O)N[C@H](CO)C(=O)N[C@H](CCC(=O)O)C(=O)O)C(C)C | Signal transducer CD24 (CD24, Homo sapiens, UniProt P25063) | binding, microscale thermophoresis | PBS, 0.05% Tween20, 5% DMSO | – | 9.22 ± 6.47 µM
Nc1ncnc2c1ncn2[C@@H]1O[C@H](CO)[C@@H](O[C@H]2O[C@H](CO)[C@@H](OP(=O)(O)O)[C@H](OP(=O)(O)O)[C@H]2O)[C@H]1O | Inositol 1,4,5-trisphosphate-gated calcium channel ITPR1, IP3-binding core (Itpr1, Rattus norvegicus, UniProt P29994, R568Q) | binding, 3H-IP3 competition | – | IP3-binding core IBC^R568Q | 0.0264 µM
CCCC[N+](CCCC)(CCCC)Cc1ccc(C(=O)c2ccccc2)cc1 | Kcnma1 (Mus musculus, UniProt Q08460) | – | – | – | 9.5 µM
CC(=O)Oc1c(C)c(C)c2c(c1C)CC[C@](C)(CCC[C@@H](C)CCC[C@@H](C)CCCC(C)C)O2 (racemic) | [Pyruvate dehydrogenase (acetyl-transferring)] kinase isozyme 3, mitochondrial (PDK3, Homo sapiens, UniProt Q15120) | binding, fluorescence quenching | – | pH 8.0, 25 °C | 0.231 µM
C[n+]1ccc(/C=N/NC(=O)c2cncc(C(=O)N/N=C/c3cc[n+](C)c4ccccc34)n2)c2ccccc21 | telomeric G4 DNA hybrid-2 | binding, fluorescence titration | 100 mM KCl buffer | pH 7.2, added: labelled G4 DNA 2 nM | 0.0238 ± 0.0018 µM
O=C(COCCc1ccccc1)N[C@@H](Cc1cn(CCNC(=O)c2ccc(S[C@@H]3O[C@H](CO)[C@H](O)[C@H](O)[C@H]3O)cc2)nn1)C(=O)NCCO | lecA | binding, ITC | – | – | 8.3 µM
CC(=O)N[C@@H](Cc1c[nH]c2ccccc12)C(=O)N[C@H]1CSSC[C@@H](C(=O)N[C@H](C(N)=O)[C@@H](C)O)NC(=O)[C@H](CCCNC(=N)N)NC(=O)[C@H](Cc2c[nH]cn2)NC(=O)[C@H](C)NC(=O)CNC(=O)[C@H](Cc2c[nH]c3ccccc23)NC(=O)[C@H](CC(=O)O)NC(=O)[C@H](CCC(N)=O)NC(=O)[C@H](Cc2c[nH]c3ccccc23)NC(=O)[C@H](C(C)C)NC1=O | Complement C3 | surface plasmon resonance | – | 25 °C, 1:1 binding model | 0.52 µM
CC[C@H](C)[C@H](NC(C)=O)C(=O)N[C@H]1CSSC[C@@H](C(=O)N[C@H](C(N)=O)[C@@H](C)O)NC(=O)[C@H](CCCNC(=N)N)NC(=O)[C@H](Cc2c[nH]cn2)NC(=O)[C@H](C)NC(=O)CNC(=O)[C@H](Cc2c[nH]c3ccccc23)NC(=O)[C@H](CC(=O)O)NC(=O)[C@H](CCC(N)=O)NC(=O)[C@H](Cc2ccc(OC)cc2)NC(=O)[C@H](C(C)C)NC1=O | Complement C3 | binding, ITC | – | pH 7.4 | 0.115 µM

Some of these lines once more:
SMILES | target | test | test system | conditions | Kd
COc1cc(C(=O)O)c2c(c1)C(C)=CC(C)(C)N2 | E3 ubiquitin-protein ligase CBL-C (Homo sapiens, UniProt Q9ULV8) | binding, NMR | – | – | 720 µM
O=C(CCc1ccc2n1[B-](F)(F)[N+]1=C(c3ccc[nH]3)C=CC1=C2)NCCCn1cc([C@H]2CN(Cc3ccccn3)C(=O)[C@@H]3CCC[C@H]2N3S(=O)(=O)c2cc(Cl)cc(Cl)c2)nn1 | Peptidyl-prolyl cis-trans isomerase FKBP5 (FKBP5, Homo sapiens, UniProt Q13451) | binding, FP | – | – | 0.228 µM
